Experimental data of several laboratories.

Structure (SMILES)	assay	system	conditions	quantity	result
O=C1CCc2ccc(NS(=O)(=O)c3cccc(Oc4ccccc4)c3)cc2N1	rapid equilibrium dialysis	C57BL/6J mouse, plasma	–	unbound fraction	0.39%
OC1(C(F)(F)F)CCN(c2nc(Nc3ccnc(C(F)(F)F)c3)nc(-c3cccc(C(F)(F)F)n3)n2)C1 (centres unmarked)	–	mouse CD-1, plasma	0.5, 5 and 50 µM, 6 h	unbound fraction	< 0.005
Cc1nc(N[C@@H](C)c2ccc(-c3nc(C4CC4)no3)cc2)c2cc(C)oc2n1	–	mouse, plasma	–	unbound fraction	0.0029
Nc1nc(Cl)nc2c1ncn2Cc1cc(OCC(F)F)cc(OC(F)F)c1	–	C57BL/6J mouse male, brain homogenate	oral, 5.0 mg/kg, 4 h	unbound brain concentration	114 ng/g
O=C(Cc1ccc(-c2ccc(OCCN3CCOCC3)cc2)cn1)NCc1ccc(F)cc1	–	mouse, plasma	–	unbound fraction	0.107
CCCCCCCCCCCCCCCC(=O)NCCOCCOCCOCCOCCOCCOCCOCCOCCC(=O)NCCCC[C@H](NC(=O)CNC(=O)[C@@H]1CSSC[C@H](N)C(=O)N[C@@H](Cc2ccc(O)cc2)C(=O)N[C@@H]([C@@H](C)CC)C(=O)N[C@@H](CCC(N)=O)C(=O)N[C@@H](CC(N)=O)C(=O)N1)C(=O)NCC(N)=O	–	mouse, plasma	subcutaneous, non-depot, 1 mg/kg	unbound Cmax	0.6 nM
Cc1ccc(CNC(=O)Cc2ccc(-c3ccc(OCCN4CCOCC4)cc3)cn2)cc1	–	mouse, plasma	–	unbound fraction	0.057
Cc1cc(NC(=O)[C@H](O)c2cc(F)cc(F)c2)ccc1-c1cnc(N)c(C(=O)NC(C)C)c1	equilibrium dialysis	nu/nu mouse, female, plasma	1 µM, 6 h, pH 7.4, 37 °C	unbound fraction	0.023

Excerpt of the above:
Structure (SMILES)	assay	system	conditions	quantity	result
Cc1ccc(CNC(=O)Cc2ccc(-c3ccc(OCCN4CCOCC4)cc3)cn2)cc1	–	mouse, plasma	–	unbound fraction	0.057
